# Results pooled from the literature.
# Compare with care: the assays were run in different laboratories. “And” joins repeats or separate records; there may be more than shown. ± marks the error that the study gave.
# odorant-binding protein 24: odorant-binding protein 24 (Monochamus alternatus, UniProt A0A1I9HZN3)
# SNCA fibrils: Alpha-synuclein, fibrils (SNCA, Homo sapiens, UniProt P37840)
# Adcy2/ADCY5 C1/C2 domains: Adcy2/ADCY5, C1/C2 domains (Rattus norvegicus, UniProt P26769+P30803)
# UniProt P30803, sequence (whole entry, looked up): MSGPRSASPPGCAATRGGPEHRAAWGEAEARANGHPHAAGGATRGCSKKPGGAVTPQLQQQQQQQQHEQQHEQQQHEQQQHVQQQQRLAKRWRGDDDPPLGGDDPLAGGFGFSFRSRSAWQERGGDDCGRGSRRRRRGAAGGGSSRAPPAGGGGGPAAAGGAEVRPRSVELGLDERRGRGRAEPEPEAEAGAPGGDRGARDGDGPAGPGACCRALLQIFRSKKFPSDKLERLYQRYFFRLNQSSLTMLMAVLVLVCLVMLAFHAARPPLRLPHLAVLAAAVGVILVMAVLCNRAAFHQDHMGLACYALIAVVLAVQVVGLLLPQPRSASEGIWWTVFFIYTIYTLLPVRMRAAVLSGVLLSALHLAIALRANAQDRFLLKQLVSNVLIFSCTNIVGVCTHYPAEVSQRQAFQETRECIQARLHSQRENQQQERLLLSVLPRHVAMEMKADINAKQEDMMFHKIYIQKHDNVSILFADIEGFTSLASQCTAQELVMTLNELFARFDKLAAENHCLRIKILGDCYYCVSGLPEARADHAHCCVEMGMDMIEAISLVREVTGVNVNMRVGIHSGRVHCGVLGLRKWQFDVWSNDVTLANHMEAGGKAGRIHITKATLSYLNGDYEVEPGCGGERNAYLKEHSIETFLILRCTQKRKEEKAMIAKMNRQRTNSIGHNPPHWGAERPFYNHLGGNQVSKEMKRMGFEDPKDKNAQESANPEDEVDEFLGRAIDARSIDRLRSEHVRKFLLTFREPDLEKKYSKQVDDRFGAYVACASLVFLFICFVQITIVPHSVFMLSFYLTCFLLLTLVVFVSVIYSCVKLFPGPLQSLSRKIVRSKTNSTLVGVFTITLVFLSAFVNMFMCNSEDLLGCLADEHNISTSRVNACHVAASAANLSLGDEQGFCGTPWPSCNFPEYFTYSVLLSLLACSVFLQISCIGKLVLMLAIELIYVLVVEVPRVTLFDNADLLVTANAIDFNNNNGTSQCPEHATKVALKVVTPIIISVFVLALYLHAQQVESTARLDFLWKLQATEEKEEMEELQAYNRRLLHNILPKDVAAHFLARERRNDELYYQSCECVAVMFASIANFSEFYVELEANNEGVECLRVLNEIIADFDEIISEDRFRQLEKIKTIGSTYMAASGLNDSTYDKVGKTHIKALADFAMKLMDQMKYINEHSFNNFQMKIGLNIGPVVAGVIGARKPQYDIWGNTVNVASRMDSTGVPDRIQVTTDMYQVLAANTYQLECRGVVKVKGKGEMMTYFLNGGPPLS
# HRH4: Histamine H4 receptor (HRH4, Homo sapiens, UniProt Q9H3N8)
# UniProt Q9H3N8, sequence (whole entry, looked up): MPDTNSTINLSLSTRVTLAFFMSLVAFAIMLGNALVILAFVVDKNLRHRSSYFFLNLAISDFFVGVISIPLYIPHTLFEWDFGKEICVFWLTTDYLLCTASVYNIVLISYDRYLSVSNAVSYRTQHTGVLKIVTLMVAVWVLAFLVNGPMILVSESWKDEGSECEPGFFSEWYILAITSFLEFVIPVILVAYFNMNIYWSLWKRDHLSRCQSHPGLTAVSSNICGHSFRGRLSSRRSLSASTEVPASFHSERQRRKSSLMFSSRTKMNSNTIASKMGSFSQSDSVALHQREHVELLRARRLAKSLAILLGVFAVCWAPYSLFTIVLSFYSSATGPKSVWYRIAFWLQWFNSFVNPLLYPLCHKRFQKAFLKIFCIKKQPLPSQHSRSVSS
# LRRK2 G2019S: Leucine-rich repeat serine/threonine-protein kinase 2 (LRRK2, Homo sapiens, UniProt Q5S007, G2019S)
# UniProt Q5S007, sequence (whole entry, unmodified, looked up): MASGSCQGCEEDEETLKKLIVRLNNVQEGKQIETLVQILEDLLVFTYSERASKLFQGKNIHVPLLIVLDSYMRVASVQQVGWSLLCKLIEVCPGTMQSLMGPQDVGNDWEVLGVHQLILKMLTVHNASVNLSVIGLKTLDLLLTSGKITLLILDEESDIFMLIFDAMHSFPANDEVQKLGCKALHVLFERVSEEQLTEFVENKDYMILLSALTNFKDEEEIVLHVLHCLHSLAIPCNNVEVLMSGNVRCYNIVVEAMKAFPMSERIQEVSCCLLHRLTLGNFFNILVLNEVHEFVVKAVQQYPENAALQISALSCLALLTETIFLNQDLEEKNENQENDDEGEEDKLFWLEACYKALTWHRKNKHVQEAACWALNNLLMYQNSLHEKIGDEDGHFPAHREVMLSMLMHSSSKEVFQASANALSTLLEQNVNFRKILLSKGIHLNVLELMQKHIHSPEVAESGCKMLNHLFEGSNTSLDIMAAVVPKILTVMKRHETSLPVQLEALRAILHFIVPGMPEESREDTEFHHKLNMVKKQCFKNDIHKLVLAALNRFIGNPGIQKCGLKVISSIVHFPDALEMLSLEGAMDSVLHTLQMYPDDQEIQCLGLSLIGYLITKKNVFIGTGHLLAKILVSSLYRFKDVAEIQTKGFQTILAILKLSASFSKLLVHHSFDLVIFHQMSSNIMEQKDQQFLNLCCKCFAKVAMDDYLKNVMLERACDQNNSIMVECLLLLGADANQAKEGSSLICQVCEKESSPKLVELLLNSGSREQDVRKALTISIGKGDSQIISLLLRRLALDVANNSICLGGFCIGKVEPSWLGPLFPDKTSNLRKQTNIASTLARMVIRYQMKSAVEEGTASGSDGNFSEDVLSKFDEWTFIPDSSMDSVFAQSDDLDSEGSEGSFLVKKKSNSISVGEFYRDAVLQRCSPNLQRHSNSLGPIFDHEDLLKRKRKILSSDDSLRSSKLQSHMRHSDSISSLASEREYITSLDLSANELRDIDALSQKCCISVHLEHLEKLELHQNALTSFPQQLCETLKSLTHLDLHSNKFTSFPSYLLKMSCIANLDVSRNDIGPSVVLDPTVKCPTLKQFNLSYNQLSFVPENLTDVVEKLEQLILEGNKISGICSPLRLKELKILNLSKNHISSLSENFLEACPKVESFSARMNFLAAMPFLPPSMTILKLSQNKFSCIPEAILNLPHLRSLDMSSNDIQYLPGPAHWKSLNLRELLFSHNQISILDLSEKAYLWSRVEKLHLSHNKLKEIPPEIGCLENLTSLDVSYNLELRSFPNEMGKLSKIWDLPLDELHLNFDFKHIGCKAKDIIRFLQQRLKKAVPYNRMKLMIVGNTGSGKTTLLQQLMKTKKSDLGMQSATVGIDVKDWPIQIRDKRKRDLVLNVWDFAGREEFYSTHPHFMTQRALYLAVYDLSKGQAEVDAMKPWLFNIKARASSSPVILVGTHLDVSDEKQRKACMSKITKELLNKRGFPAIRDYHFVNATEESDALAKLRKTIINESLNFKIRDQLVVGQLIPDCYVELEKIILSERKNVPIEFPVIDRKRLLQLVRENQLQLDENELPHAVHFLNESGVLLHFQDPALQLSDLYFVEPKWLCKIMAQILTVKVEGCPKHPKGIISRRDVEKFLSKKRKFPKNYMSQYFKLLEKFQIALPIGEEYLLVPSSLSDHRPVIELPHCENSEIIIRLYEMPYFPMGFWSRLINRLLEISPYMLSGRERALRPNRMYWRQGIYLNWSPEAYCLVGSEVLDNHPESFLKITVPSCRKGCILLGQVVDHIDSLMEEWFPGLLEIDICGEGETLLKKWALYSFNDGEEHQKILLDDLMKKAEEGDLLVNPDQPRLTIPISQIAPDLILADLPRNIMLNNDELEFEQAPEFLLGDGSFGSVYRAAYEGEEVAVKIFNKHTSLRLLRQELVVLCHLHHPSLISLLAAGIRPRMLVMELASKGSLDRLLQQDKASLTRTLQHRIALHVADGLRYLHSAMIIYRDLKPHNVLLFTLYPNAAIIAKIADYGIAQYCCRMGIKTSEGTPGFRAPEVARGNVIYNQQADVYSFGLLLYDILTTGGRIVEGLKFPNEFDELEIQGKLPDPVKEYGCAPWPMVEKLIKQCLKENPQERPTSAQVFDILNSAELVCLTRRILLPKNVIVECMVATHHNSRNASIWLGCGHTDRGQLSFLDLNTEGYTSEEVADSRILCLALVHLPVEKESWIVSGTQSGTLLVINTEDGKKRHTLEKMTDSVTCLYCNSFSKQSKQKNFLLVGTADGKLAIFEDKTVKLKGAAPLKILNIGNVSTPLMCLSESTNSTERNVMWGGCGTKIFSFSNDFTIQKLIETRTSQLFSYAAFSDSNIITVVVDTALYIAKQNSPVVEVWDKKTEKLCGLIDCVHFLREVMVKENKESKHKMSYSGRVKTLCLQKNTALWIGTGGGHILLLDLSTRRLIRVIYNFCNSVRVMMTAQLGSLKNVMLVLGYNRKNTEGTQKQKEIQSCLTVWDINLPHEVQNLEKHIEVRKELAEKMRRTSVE
# SLC18A3: Vesicular acetylcholine transporter (SLC18A3, Homo sapiens, UniProt Q16572)
# UniProt P21397, sequence (whole entry, unmodified, looked up): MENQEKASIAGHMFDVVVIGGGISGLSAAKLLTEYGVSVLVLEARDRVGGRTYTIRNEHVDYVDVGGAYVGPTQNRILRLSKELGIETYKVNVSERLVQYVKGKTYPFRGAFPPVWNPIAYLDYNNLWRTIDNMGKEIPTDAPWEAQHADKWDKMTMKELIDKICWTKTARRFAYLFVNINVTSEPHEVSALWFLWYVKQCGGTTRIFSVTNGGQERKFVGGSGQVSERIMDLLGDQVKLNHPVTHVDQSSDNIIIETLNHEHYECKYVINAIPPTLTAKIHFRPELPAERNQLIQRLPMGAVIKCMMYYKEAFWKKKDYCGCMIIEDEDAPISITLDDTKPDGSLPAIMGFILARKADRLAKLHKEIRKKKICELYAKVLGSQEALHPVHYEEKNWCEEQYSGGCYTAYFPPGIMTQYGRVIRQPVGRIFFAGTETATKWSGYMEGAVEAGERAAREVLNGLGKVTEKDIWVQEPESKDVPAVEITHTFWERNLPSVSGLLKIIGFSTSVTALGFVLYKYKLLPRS
# UniProt O15527, sequence (whole entry, looked up): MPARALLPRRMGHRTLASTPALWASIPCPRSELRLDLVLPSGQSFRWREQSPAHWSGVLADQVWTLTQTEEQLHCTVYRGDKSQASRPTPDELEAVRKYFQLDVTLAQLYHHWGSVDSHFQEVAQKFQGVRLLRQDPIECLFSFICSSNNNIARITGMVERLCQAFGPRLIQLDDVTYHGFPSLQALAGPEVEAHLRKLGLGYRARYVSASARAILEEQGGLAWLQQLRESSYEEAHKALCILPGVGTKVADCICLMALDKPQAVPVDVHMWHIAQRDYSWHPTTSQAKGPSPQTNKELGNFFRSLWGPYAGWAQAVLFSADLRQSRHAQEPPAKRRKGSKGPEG
Substance,target,assay,system,setting,Ki
CC1=CC[C@@H]2[C@@H]3[C@H]1[C@@]2(C)CCCC3(C)C,odorant-binding protein 24,competitive fluorescence binding,,"pH 7.4, together with: 1-NPN",44.8 ± 7.23 µM
COc1ccc(/C=C/C(=O)c2nccs2)cc1,SNCA fibrils,"fibril binding, thioflavin T competition",,"1 µM fibrils, together with: thioflavin T 3 µM",0.053 ± 0.0198 µM
(+)-fenchone,odorant-binding protein 24,competitive fluorescence binding,,"pH 5, together with: 1-NPN",32 ± 3.3 µM
ANT-GTP,Adcy2/ADCY5 C1/C2 domains,"enzyme activity, inhibitor",,together with: 10 mM MnCl2 and 100 µM forskolin,0.16 ± 0.045 µM
OC1CCCc2ccc(OCc3ccc(Cl)cc3)cc21 (centres unmarked),"MAOA (Homo sapiens, UniProt P21397)","enzyme activity, inhibitor",,,1 µM
Cc1cccc(NC(=O)c2ccc(Br)cc2)n1,mGluR5,binding,"HEK293T cell membranes, transfected",,> 10 µM
(+)-β-pinene,odorant-binding protein 24,competitive fluorescence binding,,"pH 5, together with: 1-NPN",> 50 µM
N=C(NCCCCCCCCCCN)NCCCc1c[nH]cn1,HRH4,"ligand displacement, radioligand",,cell membranes,0.166 µM
Nc1ncnc2c1ncn2[C@@H]1O[C@H](COP(=O)(O)OP(=O)(O)NP(=O)(O)O)[C@@H](O)[C@H]1O,LRRK2 G2019S,"kinase activity, inhibitor, radiometric",,"Ki,e, variable ATP",400 ± 200 µM
CCCn1c(=O)n(CCCCN2CCN(c3ccc(F)cc3)CC2)c2ccccc21,rat opioid receptors,,rat brain membranes,together with: [3H]bremazocine,> 10 µM
CC(=O)C1CCCN1S(=O)(=O)c1ccc(C)cc1 (centres unmarked),"MAL12 (Saccharomyces cerevisiae S288c, UniProt P53341)","enzyme activity, inhibitor, absorbance",,,5610 µM
Br,"trans-3-chloroacrylic acid dehalogenase (Pseudomonas pavonaceae, UniProt Q9EV84+Q9EV85)",,,,~10000 µM
NC(=S)NCCCc1c[nH]cn1,HRH4,"ligand displacement, radioligand",,cell membranes,1.7 µM
O=c1ccn([C@@H]2O[C@H](CO)[C@@H](O)[C@H]2O)c(=O)[nH]1,P1-type nucleoside transporter,"thymidine uptake, inhibitor","Trypanosoma brucei brucei, bloodstream form","15 min, together with: [3H]-thymidine",199 ± 38 µM
C=C(C)[C@@H]1CC=C(C)CC1,odorant-binding protein 24,"binding, competitive fluorescence binding",,"pH 5, together with: 1-NPN",> 50 µM
COc1ccc(-c2cc(-c3nccs3)on2)cc1,SNCA fibrils,"fibril binding, thioflavin T competition",,"1 µM fibrils, together with: thioflavin T 3 µM",0.134 µM
Nc1nc(Cl)nc2c1ncn2[C@H]1C[C@H](O)[C@@H](COP(=O)(O)OP(=O)(O)O)O1,"Ribonucleoside-diphosphate reductase large subunit (Homo sapiens, UniProt P23921)","CDP reductase activity, inhibitor",,"3 min, apparent Ki, together with: CDP substrate, ATP effector",1.4 ± 0.7 µM
N=C(N)NCCCCCCCCNC(=N)NCCCc1c[nH]cn1,HRH4,"ligand displacement, radioligand",,cell membranes,0.145 µM
(+)-α-pinene,odorant-binding protein 24,competitive fluorescence binding,,"pH 7.4, together with: 1-NPN",12.8 ± 1.09 µM
N=C(N)NCCCCCCNC(=N)NCCCc1c[nH]cn1,HRH4,"ligand displacement, radioligand",,cell membranes,0.24 µM
Cc1ccc(C(=O)/C=C/c2ccccc2)cc1,GABA-A receptor benzodiazepine site (rat),binding,rat cerebral cortex membranes,together with: [3H]flunitrazepam,6.3 µM and ~6 µM and < 6 µM
NC[C@@H]1O[C@H](C23CC4CC(CC(C4)C2)C3)Cc2c1ccc(O)c2O,"D(1A) dopamine receptor (Sus scrofa, UniProt P50130)","binding, radioligand competition binding",porcine striatal homogenate,together with: 1 nM [3H]SCH-23390,0.0039 ± 0.0006 µM
c1cc2c(cc1C1CCCCC1)c1c3n2CCNC3CCC1 (centres unmarked),"MAOA (Homo sapiens, UniProt P21397, S209A)","enzyme activity, competitive inhibitor",,"S209A mutant, together with: kynuramine",4.11 ± 0.67 µM
CCOC(=O)NC(=N)c1ccc(OCc2cccc(COc3ccc(C(C)(C)c4ccc(O)cc4)cc3)c2)cc1,"Leukotriene B4 receptor 1 (Cavia porcellus, UniProt H0VYV8, H83G/K88G/S309A)",displacement of LTB4,membrane fraction,H83G/K88G mutant,0.395 µM
Nc1ncnc2c1ncn2[C@@H]1O[C@H](COP(=O)(O)OP(=O)(O)O)[C@@H](O)[C@H]1O,LRRK2 G2019S,"kinase activity, inhibitor, radiometric",,"Ki,e, variable ATP",100 ± 20 µM
O=c1[nH]cnc2c1ncn2[C@@H]1O[C@H](CO)[C@@H](O)[C@H]1O,Trichomonas vaginalis nucleoside transporter,inhibitor,"trophozoites, Trichomonas vaginalis","high-affinity component, together with: [3H]-guanosine",6.3 ± 2.6 µM
N=c1ccc2c(-c3ccc(C(=O)NCCCCCCn4cc(CCCC(=O)Nc5nc6ccc(Cl)cc6c6nc(-c7ccco7)nn56)nn4)cc3C(=O)O)c3ccc(N)c(S(=O)(=O)O)c3oc-2c1S(=O)(=O)O,"ADORA2A (Homo sapiens, UniProt P29274)","ligand displacement, radioligand",,,0.073 µM
COc1ccc(/C=C/c2cc(-c3nccs3)[nH]n2)cc1,SNCA fibrils,"fibril binding, thioflavin T competition",,"1 µM fibrils, together with: thioflavin T 3 µM",0.059 ± 0.0113 µM
Nc1nc2c(ncn2[C@H]2C[C@H](O)[C@@H](COP(=O)(O)O)O2)c(=O)[nH]1,"OGG1 (Homo sapiens, UniProt O15527)","8-oxoguanine excision, competitive inhibitor",,"pH 7.5, 37 °C, substrate at 2 × Km, together with: 22 nM oxoguanine duplex DNA",6500 µM
MANT-UTP,Adcy2/ADCY5 C1/C2 domains,"enzyme activity, inhibitor",,together with: 10 mM MnCl2 and 100 µM forskolin,0.058 ± 0.0084 µM
O=C(c1ccc(S(=O)(=O)CCCF)cc1)C1CCN(C2Cc3ccccc3CC2O)CC1 (racemic),SLC18A3,"ligand displacement, radioligand",,,0.0128 µM
CC1(C)C=C(C(=O)OC(C)(C)C)C(=O)CC1,"MAPK8 (Homo sapiens, UniProt P45983)","ligand displacement, FP",,,110 µM
N=C(N)NCCCCNC(=N)NCCCc1c[nH]cn1,HRH4,"ligand displacement, radioligand",,cell membranes,0.0309 µM
O=c1[nH]cc(F)c(=O)[nH]1,P1-type nucleoside transporter,"thymidine uptake, inhibitor","Trypanosoma brucei brucei, bloodstream form","15 min, together with: [3H]-thymidine",> 1000 µM
N=C(NCCCCCCCCCCNC(N)=O)NCCCc1c[nH]cn1,HRH4,"ligand displacement, radioligand",,cell membranes,0.2 µM
CS(=O)(=O)c1ccc(C(=O)C2CCN(C3Cc4ccccc4CC3O)CC2)cc1 (racemic),SLC18A3,"ligand displacement, radioligand",,,0.0054 µM
N=C(N)NCCCCCCCCCCCCNC(=N)NCCCc1c[nH]cn1,HRH4,"ligand displacement, radioligand",,cell membranes,0.0282 µM
O=C(/C=C/c1ccccc1)c1ccccc1O,GABA-A receptor benzodiazepine site (rat),binding,rat cerebral cortex membranes,together with: [3H]flunitrazepam,17.1 ± 1.3 µM
Nc1ncnc2c1ncn2[C@@H]1O[C@H](COP(=O)(O)OP(=O)(O)O)[C@@H](O)[C@H]1O,"Mapk1 (Rattus norvegicus, UniProt P63086)",noncompetitive vs substrate,,"together with: MgATP 1 mM, varied Sub-D",730 ± 56 µM
Cc1nc(N)sc1CCCNC(=N)NCCCCCCCCNC(=N)N,HRH4,"ligand displacement, radioligand",,cell membranes,0.398 µM
O=C(O[C@@H]1Cc2c(O)cc(O)cc2O[C@@H]1c1cc(O)c(O)c(O)c1)c1cc(O)c(O)c(O)c1,"SLC22A6 (Homo sapiens, UniProt Q4U2R8)","transporter uptake, inhibitor",,,334 µM

# Excerpt of the above:
Substance,target,assay,system,setting,Ki
N=C(NCCCCCCCCCCNC(N)=O)NCCCc1c[nH]cn1,HRH4,"ligand displacement, radioligand",,cell membranes,0.2 µM
CS(=O)(=O)c1ccc(C(=O)C2CCN(C3Cc4ccccc4CC3O)CC2)cc1 (racemic),SLC18A3,"ligand displacement, radioligand",,,0.0054 µM
N=C(N)NCCCCCCCCCCCCNC(=N)NCCCc1c[nH]cn1,HRH4,"ligand displacement, radioligand",,cell membranes,0.0282 µM
